Published values gathered from unrelated publications.
Every numbered part comes from another study and shows a few of its results, in no order.
Sequence of UniProt P29597 (whole entry, looked up): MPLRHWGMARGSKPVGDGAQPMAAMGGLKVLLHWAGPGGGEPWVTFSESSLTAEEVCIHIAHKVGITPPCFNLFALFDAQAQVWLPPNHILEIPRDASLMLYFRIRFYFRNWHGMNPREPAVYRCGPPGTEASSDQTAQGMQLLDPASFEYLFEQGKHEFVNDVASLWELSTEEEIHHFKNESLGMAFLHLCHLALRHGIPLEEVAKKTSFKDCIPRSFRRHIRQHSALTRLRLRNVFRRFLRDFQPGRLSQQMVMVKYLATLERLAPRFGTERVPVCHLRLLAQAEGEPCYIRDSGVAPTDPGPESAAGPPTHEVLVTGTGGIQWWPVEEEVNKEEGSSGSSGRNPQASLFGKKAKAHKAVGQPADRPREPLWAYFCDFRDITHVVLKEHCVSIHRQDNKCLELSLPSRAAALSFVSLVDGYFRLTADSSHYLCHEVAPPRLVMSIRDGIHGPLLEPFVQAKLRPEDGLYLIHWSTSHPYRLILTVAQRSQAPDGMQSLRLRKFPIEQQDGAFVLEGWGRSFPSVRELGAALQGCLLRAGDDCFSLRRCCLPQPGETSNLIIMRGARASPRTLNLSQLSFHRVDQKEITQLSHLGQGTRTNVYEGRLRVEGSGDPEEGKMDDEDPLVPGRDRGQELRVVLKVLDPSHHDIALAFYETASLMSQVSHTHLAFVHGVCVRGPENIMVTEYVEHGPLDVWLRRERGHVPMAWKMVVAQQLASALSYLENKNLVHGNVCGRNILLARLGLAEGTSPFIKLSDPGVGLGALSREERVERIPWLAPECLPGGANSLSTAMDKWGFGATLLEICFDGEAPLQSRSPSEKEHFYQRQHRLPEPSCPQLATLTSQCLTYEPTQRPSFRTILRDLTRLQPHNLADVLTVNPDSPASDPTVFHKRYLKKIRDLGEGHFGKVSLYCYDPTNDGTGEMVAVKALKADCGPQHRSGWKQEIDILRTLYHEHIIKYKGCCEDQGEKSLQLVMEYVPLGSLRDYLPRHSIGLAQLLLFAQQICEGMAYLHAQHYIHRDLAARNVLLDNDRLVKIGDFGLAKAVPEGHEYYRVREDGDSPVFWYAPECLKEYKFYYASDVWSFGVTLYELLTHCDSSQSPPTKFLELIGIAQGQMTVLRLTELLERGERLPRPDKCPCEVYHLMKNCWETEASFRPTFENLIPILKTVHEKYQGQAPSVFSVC

Block 1
Target: Interferon regulatory factor 5, full length, phosphomimetic (IRF5, Homo sapiens, UniProt Q13568-2, residues 1-514, S451D/S453D/S456D/S462D)
Technique: protein-binding microarray
Molecule type: double-stranded DNA, one strand shown
Medium: in vitro
Concentration: 940 nM top
Notes: 60-bp whole probe
With: salmon DNA 0.4 mg/ml
Relative to: random background probes
Direction: higher = stronger binding
All sequences stand within: GCCTAGCAC … GTCTTGATTCGCTTGACGCTGCTG
Strand | fitted relative affinity
GACGGTCTCTGTATCGGGACGTGCTAG | 1.17 z-score
GACGGTTTCGGTAGCGGGACGTGCTAG | 12.5 z-score
GACGATTTCGGGTTTCGAGCCGTGCTA | 1.91 z-score
GCGCCTTGATGTCTGGGTCTGTGCTAG | -0.351 z-score
CTTCATGTTTTTTTCTACTTGTGCTAG | 1.54 z-score
GACGGTTTCGACTATCGGGAGGTGCTA | 8.12 z-score
GACGGTATCGTGACTGGGGACGTGCTA | 0.926 z-score
GACGGTATCGGGTATCGGAACGTGCTA | 5.53 z-score

Block 2
Target: RING finger protein unkempt homolog, zinc fingers 1-6, GST-SBP tag (UNK, Homo sapiens, UniProt Q9C0B0, residues 30-357)
Sequence of UniProt Q9C0B0 (30-357, looked up): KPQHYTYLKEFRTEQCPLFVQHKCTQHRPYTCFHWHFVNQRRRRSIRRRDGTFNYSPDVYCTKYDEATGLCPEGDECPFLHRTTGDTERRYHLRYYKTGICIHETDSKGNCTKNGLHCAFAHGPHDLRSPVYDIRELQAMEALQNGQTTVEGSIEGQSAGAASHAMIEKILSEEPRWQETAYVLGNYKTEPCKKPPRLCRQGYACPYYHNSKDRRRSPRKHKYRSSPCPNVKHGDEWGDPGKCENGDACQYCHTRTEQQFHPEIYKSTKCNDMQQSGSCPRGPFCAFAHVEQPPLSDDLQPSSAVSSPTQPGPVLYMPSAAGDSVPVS
Technique: RNA Bind-n-Seq
Molecule type: RNA
Medium: in vitro
Concentration: not given
Notes: RNA with constant flanks, human and mouse sites, ends assumed
Relative to: input RNA pool
Direction: higher = stronger binding
All sequences stand within: GGGAGUUCUACAGUCCGACGAUC … CAACAGAGGAUUGAGCAUCA
Strand | bound/input enrichment [ratio]
CAGCUGCGAGGCCGCGGGUGCCCGCCGGGUGUGCUGAGCCGCCGCCAUGGGCAUCAAGUUUUUAGAAGUUAUUAAACCUUUCUGUGCAGUUCUACCAGAAAUUCAGAAGCCUGAAAGGAA | 1.52
CAAACCCCAAGUGGUGAGACAGCUUUCAAAAACAUGACGAUUCCUUAUGGGUGGGCCAAACGGCCAAUGCUUCAGCGGAUAGGUGGCUUGCAUCCUGACAUUCCAGUUUCAGUGAUCUUU | 0.171
GUUUUGAUAACAGAACAUGGAGACUUGGGAAAUGGAAAAUUUUUGGAUCCAAAAAACAGAAUCUGUUUCAAAUUUGAUCAUUUAAGAAAGGAAGCAACUGAUCCAAGGCCCUACGAAGCA | 0.225
GUUCUUCUCCCAGAAUAUGGAGGCACCAAAGUAGUUCUAGAUGACAAGGAUUAUUUCUUAUUUAGAGAUAGUGACAUUCUUGGAAAGUAUGUCGACUGAAAUCACUGUUGAAAUGGUGUC | 0.866
CGGUGAUGUCCUUACUGUCCCCAGCCAGGGCCGGGGACCGGUGUUUCACUGAGGACCUGCAUUAGAAACAUUUUUUAAAUUGUUGUACAGGAAGAGAUGUGUCUAAAACAGCAUCUUAAA | 5.38
GAUGAGCUCGCCCGGCUGCCCUACCUACGGACCUGGUUCCGCACCCGCAGCGCCAUCAUCCUGCACCUCAGCAACGGCAGCGUGCAGAUCAACUUCUUCCAGGAUCACACCAAGCUCAUC | 0.103
AAAGCACACAGACUUCUCAGCCCAUGUACUGUGCCUGCCAAGCCAUUGGAACCUGAAACCGUAGCUAGCGAGAACUUGCGCAGCCACAUACCAAAGCCGAAGGCUACUCUGUGCCAUUCC | 0.129
GAUGGGUCUCUGAAGCAGAGCAUUCUUAGUUCUAAGCUGCUGGACCACCCUUACUGUAAAAGUCCACUGGAUGCUCCCUUGCUGUGCAGUGAACCCAAAGUAGAAAACCAAAUGUCAGGU | 0.383

Block 3
Target: Sal-like protein 4, full length isoform B (SALL4, Homo sapiens, UniProt Q9UJQ4-2, residues 1-616)
Technique: universal PBM
Molecule type: double-stranded DNA, one strand shown
Medium: in vitro
Concentration: not given
Notes: 8-mer, flanks averaged, mean of replicates
Direction: higher = stronger binding
Strand | E-score
CAGCTATC | -0.125
ACTTACAC | 0.113
ATCTGTTG | -0.0344
CGGTACTA | -0.18
AAACGATT | 0.187
CTAGTACA | 0.141
GGGCAGTA | -0.211
GCTATTTA | 0.264

Mixed results
Structure (SMILES) | target | effect on | mode | concentration | relative to | quantity | result
Cc1cn(-c2cc(NC(=O)c3ccc(C)c(Nc4nccc(-c5cccnc5)n4)c3)cc(C(F)(F)F)c2)cn1 | Non-receptor tyrosine-protein kinase TYK2 (TYK2, Homo sapiens, UniProt P29597) | enzyme activity | inhibitor | 0.5 µM | control | remaining activity | 99.3%

Some of these lines once more (mixed results):
Structure (SMILES) | target | effect on | mode | concentration | relative to | quantity | result
Cc1cn(-c2cc(NC(=O)c3ccc(C)c(Nc4nccc(-c5cccnc5)n4)c3)cc(C(F)(F)F)c2)cn1 | Non-receptor tyrosine-protein kinase TYK2 (TYK2, Homo sapiens, UniProt P29597) | enzyme activity | inhibitor | 0.5 µM | control | remaining activity | 99.3%
